Measured values pooled from the literature.
Numbered parts are unrelated; each lists some results of a single study. Changes are numbered by the printed parent chain.

Set 1 — method: protein binding microarray; form: double-stranded DNA, one strand shown; medium: in vitro; concentration: not given; reference: not given; direction: higher = stronger binding
Target: Histone acetyltransferase KAT6A, winged helix 2, GST fusion (KAT6A, Homo sapiens, UniProt Q92794, residues 85-181)
Setting: 8-mer, flanks averaged, mean of 2 arrays, mostly near background
Construct (chain): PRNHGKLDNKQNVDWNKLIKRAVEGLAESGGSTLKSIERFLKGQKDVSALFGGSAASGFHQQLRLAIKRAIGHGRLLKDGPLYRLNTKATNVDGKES
Sequence	E-score
CGCATTAC	-0.0063
CATACCAG	0.00464
GTAAAGTA	-0.206
ATTGAGAA	0.0434
AACGCGAT	-0.029
ATCGCATA	0.0582

Set 2 — method: RNA Bind-n-Seq; form: RNA; medium: in vitro; concentration: 200 nM; setting: whole 134-nt RNA, ends assumed; with: 150 mM KCl; reference: input library; direction: higher = stronger binding
Target: Fragile X messenger ribonucleoprotein 1, C-terminal low-complexity region (Fmr1, Mus musculus, UniProt P35922)
Constant ends, left off below: GGGAGUUCUACAGUCCGACGAUC … UGGAAUUCUCGGGUGUCAAGG
Sequence	log2 enrichment
GUCCUGUGCUACACAUCGUAUGUACCGAAUCGGGAAAAAGGAAAAAGGGGAAAAAGGGAAAGUAUUAUGUUACGCCGUUCGGAUCUGCAC	-0.398
AACUGGAAGAACAGACCCGUAGGGCUCUGGAACUUGAGCAGGAACGGAAGCGUGCCCAGAGCGAGGCUGAAAAGCUGGCCAAGGAGCGUC	-0.879
ACCAUGCAGGUGGGCAUCUUUGGGAAGUGGGUCAAGGGGGGGAUAGGGAGGGGGGUAACACUUUGGGAACAGGUGGUCCCAGGUCGUUUC	0.921
CCUGUGCUACACAUCGUAUGUACCGAAUCGGGCCCCCCGGCCCCCCGGGGCCCCCCGGGGAAAGUAUUAUGUUACGCCGUUCGGAUCUGC	-0.334
UAACUUUAGAGGACGAUCUGAUGGAUAUGGCAGUGGACGUGGAUUUGGGGAUGGCUAUAAUGGGUAUGGAGGAGGACCUGGAGGUGGCAA	0.466
UCCUCAAGUCCUGUGCUACACAUCGUAUGUACCGAAUCGGGUGGUGGUGGGAAAGUAUUAUGUUACGCCGUUCGGAUCUGCACUUCCAGC	0.249
UCCUGUGCUACACAUCGUAUGUACCGAAUCGGGAAAAAAGGGAAAAAAGGAAAAAAGGGGAAAGUAUUAUGUUACGCCGUUCGGAUCUGC	-0.431
GCAGGAAGUCAAAACAAAUGGAAAUGCUUCGGAUAGUGGCAGGGGUGGGGGUUGCUAAGGAAAGGGUGGGAUGGGAGUGGGUAAAGAGUU	0.245
GUCCUGUGCUACACAUCGUAUGUACCGAAUCGGGUUUUUUUGGGAAAAAGGGUUUGGGAAAGUAUUAUGUUACGCCGUUCGGAUCUGCAC	-0.517

Set 3 — target: CCNB2, cyclin fold, Cln2 fusion (human); method: yeast growth competition, sequencing; medium: yeast; setting: weak parent motif; reference: not given; direction: higher = stronger binding
Starting sequence: CDC6 docking peptide (human); TLKGRRLVFDNQL; partner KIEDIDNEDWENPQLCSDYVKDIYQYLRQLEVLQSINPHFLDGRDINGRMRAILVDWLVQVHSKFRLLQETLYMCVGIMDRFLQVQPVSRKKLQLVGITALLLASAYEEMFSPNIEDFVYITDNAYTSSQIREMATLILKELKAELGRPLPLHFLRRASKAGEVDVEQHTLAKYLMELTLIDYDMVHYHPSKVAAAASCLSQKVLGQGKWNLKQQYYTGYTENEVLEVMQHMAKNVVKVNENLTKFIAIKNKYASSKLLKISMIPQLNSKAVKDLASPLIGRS
Substitution	normalised enrichment score
TLHGRRLVFDNQL [K3H]	-0.616
TLKSRRLVFDNQL [G4S]	-0.258
TLKGRRLVFRNQL [D10R]	0.806
TLKGRRLVFDNLL [Q12L]	0.425
TRKGRRLVFDNQL [L2R]	1.11
TLKGRRLLFDNQL [V8L]	0.646
FLKGRRLVFDNQL [T1F]	-0.556
TLKGRRLVFDNQC [L13C]	0.147

Further values, each from its own experiment
Substance	target	assay	system	conditions	scale	endpoint	result
PhoQ, residues 284 288 289 292 302 303 SASVAL	PhoP, residues 12 14 15 18 19 GQAIL (Escherichia coli, UniProt P23836)	Sort-seq, item: YFP reporter	E. coli	PhoQ-PhoP variant library, with: 10 µM Mg2+	reference: high Mg2+ state, higher = stronger signaling	fold induction	1.72

A few entries again (set 3):
Substitution	normalised enrichment score
TLKGRRLLFDNQL [V8L]	0.646
TLKGRRLVFDNQC [L13C]	0.147
FLKGRRLVFDNQL [T1F]	-0.556
